Measured values gathered from unrelated publications.
Each line is one published result; not all experiments were run side by side. ± gives the spread as reported.

SMILES | assay | test system | setting | scale | endpoint | result
N=C(N)NCCC[C@@H]1NC(=O)[C@H](Cc2c[nH]c3ccccc23)NC(=O)[C@@H](CC2CCCCC2)NC(=O)[C@@H]2CCCN2C(=O)[C@@H](NC(=O)CCc2ccccc2)CCCNC1=O | – | C57BL/6J mice, spinal cord | oral, 1 mg/kg, two-compartment model | – | apparent central volume (V1/F) | 0.05 µg/(ng/g)
Cc1cc2c(cc1C1(c3ncc(C(=O)O)cn3)CC1)C(C)(C)CCC2(C)C | – | Sprague-Dawley rat, male, plasma | oral, 100 mg/kg, 12 h, sesame oil vehicle | – | HDL level | 33 ± 4.9 mg/dL
Cc1ncc2c(n1)CN(C(=O)Nc1nc(-c3cccs3)ccc1N)C2 | – | male beagle dog, plasma | oral, 60 mg/kg, multiple doses, once daily | – | AUC | 13000 ng·h/mL
COc1cc(C)c(-c2ccc(O)c3c2C[C@@H](C)N[C@@H]3C)c2cccc(O)c12 (single isomer, unassigned) | metabolic stability | male CD-1 mouse, liver microsomes | 1 µM, 30 min | – | compound remaining | 32%
NC[C@@H](C(=O)Nc1ccc(-c2cn[nH]c2)cc1)c1ccccc1 | OECD 405, measured: Iris | New Zealand White rabbit | topical, 0.1 %, 32 h, day 2 | direction not given | ocular irritation score | 0
C[C@@H]1Cc2c([nH]c3ccccc23)[C@@H](c2c(F)cc(/C=C/C(=O)O)cc2F)N1C12CC(C1)C2 | – | Balb/c nude mouse, MCF7 xenograft, tumour | oral, 10 mg/kg, steady state | – | AUC(0-t) | 19500 ng·h/mL
COc1cc(NC(C)=O)c2c(c1O)-c1c(OC)c(OC)cc3c1C(C2)N(C)CC3 (stereo not drawn) | – | rat, plasma | 5 µg/mL, time not given, -20 °C to room temperature, three freeze-thaw cycles | – | remaining compound | 99.5 ± 1.6%
CCCC[C@@H]1NC(=O)[C@@H](NC(=O)[C@H](CCC(=O)O)NC(=O)CNC(=O)CN2CCN(CC(=O)O)CCN(CC(=O)O)CCN(CC(=O)O)CC2)CCCCNC(=O)C[C@@H](C(N)=O)NC(=O)[C@H](C(C)C)NC(=O)[C@@H]2CCCN2C(=O)[C@H](CCCNC(=N)N)NC(=O)CNC(=O)[C@H](Cc2c[nH]c3ccccc23)NC(=O)[C@H](CCCNC(=N)N)NC(=O)[C@@H](Cc2ccccc2)NC(=O)[C@H](Cc2c[nH]cn2)NC(=O)[C@H](CCC(=O)O)NC1=O [gallium-67 labelled] | – | C57 mice with B16/F1 melanoma, kidneys | intravenous, 0.037 MBq, 24 h | – | tissue uptake | 20.9 ± 5.77 %ID/g
CC(=O)N[C@H](CCNC(=O)c1cc(NC(=O)c2cc(NC(=O)c3cc(NC(=O)c4nccn4C)cn3C)cn2C)cn1C)C(=O)Nc1cn(C)c(C(=O)Nc2cc(C(=O)Nc3cc(C(=O)Nc4cc(C(=O)NCCCN(C)CCCN[14C](=O)c5cccc([14C](=O)O)c5)n(C)c4)n(C)c3)n(C)c2)n1 | – | BALB/c male mouse | intraperitoneal, 15 nmol per animal, 24 h | – | liver concentration | 0.57 mg/kg
C=C(c1ncc(C(=O)O)cn1)c1cc2c(cc1C)C(C)(C)CCC2(C)C | – | Sprague-Dawley rat, male | oral, 100 mg/kg, 6 h, sesame oil vehicle | – | blood cholesterol | 89 ± 16 mg/dL
Cc1cccc(-c2cccc(C)n2)n1.O.O.[Cl-].[Cl-].[Ru+2].c1ccc(-c2ccnc3c2ccc2c(-c4ccccc4)ccnc23)cc1 | – | phosphate buffer with NaCl | pH 7.4, 37 °C, photoactivated, dialysis | – | release from nanoassemblies | 55.9%
CC(C)c1cnc(-c2cc(Cl)ccc2F)cc1Nc1ccncc1C(=O)NC(CO)CO | measured: pyrexia | human patients | oral, dose not given, grade 1 | – | patients with related SAE | 0%
C=CC(=O)Nc1cc(Nc2nccc(-c3cn(C4CC4)c4ccccc34)n2)c(OC)cc1N(C)CCNC | radiolabelled metabolite profiling | human male, plasma | oral, 110 mg, 6 h | – | plasma concentration | 30.4 ng/g
Cc1c(C(=O)Nc2ccn(C)n2)ncn1Cc1cccc(C(F)(F)F)c1 | – | human WT αS transgenic mouse | oral, dose not given | – | body weight | 28 ± 1 g
C[C@H](CN(C)Cc1ccccc1)NC(=O)c1ccc(-c2noc(C(F)(F)[18F])n2)cc1 | PET | Sprague-Dawley rat, female, hippocampus and cerebellum | intravenous, 1 min | baseline: hippocampus SUV over cerebellum SUV | hippocampus-to-cerebellum ratio | 0.79 ± 0.91
CCCCCCCCCCCCCCCC(=O)N[C@@H](CCCCN)C(=O)N[C@@H](CCCCN)C(=O)N[C@@H](CO)C(=O)N[C@@H](CCCNC(=N)N)C(=O)N[C@@H](C)C(=O)N[C@@H](CC(C)C)C(=O)N[C@@H](Cc1ccccc1)C(N)=O | – | CAD/ACS patients undergoing catheterization | – | baseline: placebo | laboratory, vital signs, ECG | no effect
O=C([O-])CN1CCN(CC(=O)[O-])CCN(CC(=O)[O-])CCN(CC(=O)[O-])CC1.[111In+3] | – | mouse serum | 24 h, 25 °C, with: 111In | – | radiometal bound to chelator | 89%
Cc1nc(C)c(C=[N+]([O-])C(C)(C)C)nc1C | – | healthy human, both sexes, serum | oral, 600 mg twice daily, 7 days | – | Cmin | 77 ng/mL
CC(C)c1ccc(C(=O)Nc2ccc(CN)cc2)c(O)c1 | – | rat liver microsomes | 1 µM, with: NADPH | – | t1/2 | 0.367 h
CCCC[C@H](NC(C)=O)C(=O)N[C@H]1CC(=O)NCCCC[C@@H](C(=O)N[C@@H](C(=O)N2CCC[C@@H]2C(N)=O)C(C)C)NC(=O)[C@H](Cc2c[nH]c3ccccc23)NC(=O)[C@H](CCCN=C(N)N)NC(=O)[C@@H](Cc2ccc3ccccc3c2)NC(=O)[C@@H]2CCCN2C1=O | – | dog, cachectic, plasma | subcutaneous, 0.75 mg/kg, day 1, 4 h post-dose | – | plasma concentration | 1230 ± 300 ng/mL
O=C([O-])CN1CCN(CC(=O)[O-])CCN(CC(=O)NCC2CCC(C(=O)NC(Cc3ccc4ccccc4c3)C(=O)NCCCCC(NC(=O)NC(CCC(=O)O)C(=O)O)C(=O)O)CC2)CCN(CC(=O)[O-])CC1.[44Sc+3] (stereo not drawn) | transchelation stability | – | 1 h, 37 °C, with: DTPA 10 mM | – | intact complex | 97.7 ± 0.5%

SMILES | assay | test system | setting | scale | endpoint | result
Oc1cc2nc(c1)CNCc1cc(O)cc(n1)CNC2 | – | mouse liver microsomes | 2 µM, time not given | – | compound remaining | 77%
OC1(C(F)(F)F)CCN(c2nc(Nc3ccnc(C(F)(F)F)c3)nc(-c3cccc(C(F)(F)F)n3)n2)C1 (stereo not drawn) | – | human, plasma | 0.5, 5 and 50 µM, 6 h | – | unbound fraction | < 0.005
C#CCOc1ccc(/C=C2\SC(=O)N(CC(=O)NCc3ccccc3)C2=O)cc1 | inverse Kirkwood-Buff integrals | binary solvent mixture | 298.15 K, mole fraction x1 0.00 | – | Kirkwood-Buff integral G2,3 | -257 cm³/mol
CCCC[C@H](NC(=O)CNC(=O)CNC(=O)CN1CCN(CC(=O)O)CCN(CC(=O)O)CCN(CC(=O)O)CC1)C(=O)N[C@H]1CC(=O)NCCCC[C@@H](C(N)=O)NC(=O)[C@H](Cc2c[nH]c3ccccc23)NC(=O)[C@H](CCCNC(=N)N)NC(=O)[C@@H](Cc2ccccc2)NC(=O)[C@H](Cc2c[nH]cn2)NC1=O [copper-64 labelled] | – | female C57 mouse, B16/F1 melanoma | intravenous, 0.037 MBq, 24 h | baseline: tumour over heart | uptake ratio | 2.67
NS(=O)(=O)c1ccc(N2N=C(C(F)(F)F)CC2c2ccc(F)cc2F)cc1 (stereo not drawn) | population PK model | Beagle dog, plasma | oral | – | terminal half-life | 33.6 h
CCC/C(=C\C1=C(C(F)(F)F)C(=O)c2ccccc2C1=O)C(=O)N(CC)CC | – | human liver S9 | 1 µM, phase II UGT conditions | – | CLint | 23.2 mL/min/kg
CC(C)[C@H](NC(=O)[C@@H]1CCCN1C(=O)[C@H](CCCNC(=N)N)NC(=O)[C@H](CS)NC(=O)[C@H](Cc1c[nH]c2ccccc12)NC(=O)[C@H](CCCNC(=N)N)NC(=O)[C@@H](Cc1ccccc1)NC(=O)[C@H](Cc1c[nH]cn1)NC(=O)[C@H](CCC(=O)O)NC(=O)[C@H](CS)NC(=O)[C@H](CS)NC(=O)[C@@H]1CC(=O)N[C@@H](CCCNC(=N)N)C(=O)NCC(=O)N[C@@H](CC(=O)O)C(=O)N[C@H](Cc2ccc(O)cc2)C(=O)N1)C(N)=O [technetium-99m labelled] | – | C57 mouse, female, B16/F1 melanoma | intravenous, 0.037 MBq, 4 h | baseline: tumour over kidneys | tumour to tissue ratio | 0.76
CC[N+]1(Cc2ccc3ccc(O)c(C#N)c3n2)CCCC1CNC(=O)c1cc(S(N)(=O)=O)ccc1OC (stereo not drawn) | photolysis at 405 nm | KMOPS buffer | pH 7.2 | – | release yield | 63%
C=C(c1cc(F)c(C(=O)O)c(F)c1)c1cc2c(cc1C)C(C)(C)CCC2(C)C | – | Sprague-Dawley rat, male, plasma | oral, 100 mg/kg, 9 h, sesame oil vehicle | – | HDL level | 61 ± 3.8 mg/dL
NC12CNCCNCC(NCc3ccc(CNC(=O)CCCC(=O)NCc4ccc(-c5nncnn5)cc4)cc3)(CNCCNC1)CNCCNC2.[64Cu+2] | OLINDA dosimetry | upper large intestine wall | pretargeting, 120-h interval | – | mean absorbed dose | 0.0355 rad/mCi
O=C(NCCCN(CCCCN(CCCNC(=O)c1cccc(=O)n1[O-])C(=O)c1cccc(=O)n1[O-])C(=O)c1cccc(=O)n1[O-])c1cccc(=O)n1[O-].[89Zr+4] | radio-TLC | PBS | 7 d, pH 7.4, 37 °C, with: Fe^3+ 10-fold excess | – | intact complex | 83 ± 4.2%
COc1cc(OC)cc(C2=C3C(C)=C(I)C(/C=C/c4cccs4)=[N+]3[B-](F)(F)n3c(/C=C/c4cccs4)c(I)c(C)c32)c1 | – | dichloromethane | – | – | log molar absorptivity | 4.59 M⁻¹ cm⁻¹
COc1ccc(/C=C/c2ccc(-c3ccc(C)cn3)nc2)cc1 | – | dioxane | with: quinine bisulfate reference | – | fluorescence quantum yield | 0.49
CC(C)(O)c1ncc([S@](N)(=O)=NC(=O)Nc2c3c(cc4c2CCC4)CCC3)s1 | – | healthy human, fasted | oral, 300 mg single dose, capsule formulation | – | AUC(0-last)/dose | 210 ng·h/mL/mg
COc1ccc(-c2ccn(CC[C@](C)(C(=O)NO)S(C)(=O)=O)c(=O)c2)c(F)c1 | – | CF-1 mouse, female | subcutaneous, 300 mg/kg | – | half-life | 0.68 ± 0.03 h
CCCC[C@H](NC(=O)CNC(=O)CNC(=O)CN1CCN(CC(=O)O)CCN(CC(=O)O)CCN(CC(=O)O)CC1)C(=O)N[C@H]1CC(=O)NCCCC[C@@H](C(N)=O)NC(=O)[C@H](Cc2c[nH]c3ccccc23)NC(=O)[C@H](CCCNC(=N)N)NC(=O)[C@@H](Cc2ccccc2)NC(=O)[C@H](Cc2c[nH]cn2)NC1=O [gallium-67 labelled] | – | C57 mice, female, B16/F1 melanoma, tumour over blood | intravenous, 0.037 MBq, 24 h | – | tumour to tissue uptake ratio | 25.6
COC(=O)C(c1ccccc1Cl)N1CCC(SCC(=O)c2cccc(OC)c2)C(=CC(=O)O)C1 (mixture of isomers) | HPLC-MS/MS | feline citrate plasma | 100 ng/mL, 48 h, -80 °C, storage stability | – | deviation from nominal | 10%
C[C@H](NC(=O)COC(=O)[C@H](C)NC(=O)CO)C(=O)O | – | water | pH 5, 37 °C | – | depolymerization half-life | 12.6 h
COc1cc2c(cc1OC)CN(CCCCn1ccc3cc(OCC[18F])ccc31)C2 | – | male ICR mice | intravenous, 60 min post-injection | – | blood uptake | 1.46 ± 0.12 %ID/g
CC(=O)N[C@@H](CO)C(=O)N[C@@H](CC(=O)O)C(=O)N[C@@H](CCCCN)C(=O)N1CCC[C@H]1C(=O)O | H&E histology | rat embolic MCAO model | dose not given, start 4 h after MCAO, read day 7 | – | haemorrhage incidence | 14%
Cn1c(=O)oc2ccc(-c3ccc(CC(C#N)NC(=O)C4CNCCCO4)c(F)c3)cc21 (stereo not drawn) | – | human | oral, 10 mg once daily, TEAE, multiple ascending dose | – | bilirubin increased incidence | 0%
